# Results of several laboratories.
# Compare with care: the assays were run in different laboratories. “And” joins repeats or separate records; there may be more than shown.
SMILES,test,test system,setting,how to read,measurement,result
CCCCC1(CCCC)CN(c2ccccc2)c2cc(SC)c(OCC(=O)N[C@@H](C(=O)NCC(=O)O)c3ccccc3)cc2S(=O)(=O)C1,measured: 7α-hydroxy-4-cholesten-3-one,"human, plasma","15 mg once daily, day 2",,plasma C4,57.7 ng/mL
COc1ccc(-c2cncc(N[C@@H](C)c3cccc(NC(=O)c4cncc(C)c4)c3)n2)cc1OC,measured: rno-miR-128-3p,"rat SU5416/hypoxia model, lung","dose not given, unit not given",baseline: SU5416/hypoxia vehicle,delta delta Ct,0.81
Cc1cc(Nc2cc3ncccc3c(N[C@@H]3C[C@H]4CC[C@@H](C3)N4CCC#N)n2)n[nH]1,,moderate-severe ulcerative colitis patients,"80 mg, day 28, unit not given",baseline: baseline,change in partial Mayo,-1.3
[Cl-].[Cl-].[Ru+2].c1cnc2c(c1)ccc1cccnc12.c1cnc2c(c1)ccc1cccnc12.c1csc(-c2ccc(-c3ccc(-c4nc5c6cccnc6c6ncccc6c5[nH]4)s3)s2)c1,,air-saturated acetonitrile,,,singlet oxygen quantum yield,~88%
CN(C)C(=O)c1cc2cnc(Nc3ccc(N4CCNCC4)cn3)nc2n1C1CCCC1,"RNA-seq GSEA, measured: HALLMARK_UV_RESPONSE_DN gene set",MB002 tumour,concentration not given,"baseline: vehicle, direction not given",enrichment score,-0.333
C=CCn1c(=O)c2cnc(Nc3ccc(N4CCN(C)CC4)cc3)nc2n1-c1ccc2c(n1)[C@@](O)(CC)CC2,,"MDA-MB-436 xenograft, NOD/SCID mouse","oral, 60 mg/kg once daily for 38 days, day 40",baseline: control,tumour growth inhibition,60.2%
C[C@H]1O[C@@H](O[C@H]2CC[C@@]3(C)[C@@H](CC[C@]4(C)[C@@H]3C=C[C@]35OC[C@@]6(CCC(C)(C)C[C@H]63)[C@@H](O)C[C@]54C)[C@]2(C)CO)[C@H](O)[C@@H](O[C@@H]2O[C@H](CO)[C@@H](O)[C@H](O)[C@H]2O)[C@H]1O,,"chronic-plus-binge ethanol mice, plasma","oral, 10 mg/kg/day for 7 d, 168 h",,AST activity,44.5 U/L and 44 U/L and 43.1 U/L and 36.6 U/L and 42.5 U/L
CC1(C)C=C(CNc2ccc3c(c2)Cc2cc(Br)ccc2-3)C(C)(C)N1[O],T2 and T2*-weighted MRI,wild-type mouse coronal brain sections,concentration not given,baseline: untreated sections,MRI contrast,no effect
OC(CCN1CCCCC1)(c1ccccc1)C1CC2C=CC1C2 (centres unmarked),resting-state EEG,healthy elderly humans,"oral, 2 mg, eyes open, LS mean",baseline: baseline,change in EEG Beta2-power Pz-O2,5.7%
CC1(C)CCC(CN2CCN(c3ccc(C(=O)NS(=O)(=O)c4ccc(NCC5CCOCC5)c([N+](=O)[O-])c4)c(Oc4cnc5[nH]ccc5c4)c3)CC2)=C(c2ccc(Cl)cc2)C1,cell kill,"primary neoplastic B cells, dog 24","24 h, unspecified B-cell neoplasm",,EC50,1.1 µM
C[C@H]1C[C@H]2CSC(N)=N[C@@]2(c2nc(NC(=O)c3ccc(OC(F)F)cn3)cs2)CO1,measured: Aβ1-40,"healthy adults, plasma","125 mg once daily, day 1",baseline: placebo,percent change from baseline,-87.7%
c1ccc(-c2n[nH]cc2-c2ccnc3ccccc23)nc1,"kinase binding, competitor, MIB/MS competition, measured: CMK2",Candida albicans cell lysate,100 nM,baseline: DMSO,log2 fold change,-0.00681
O=S(=O)(c1ccc(Br)c2nsnc12)N1CCOCC1,"CoA-CPM signal reduction, CPM fluorescence thiol",cell-free biochemical,"assay interference counter-screen, with: CoA replacing acetyl-CoA",,IC50,> 125 µM
O=C(O)CNC(=O)Cc1ccccc1,,"ventricular cardiomyocytes, C57BL/6 mouse","dose not given, 0.076 s",,sarcomere length,1.72 µm
N=C(N)c1ccc(-c2ccc(-c3ccc(C(=N)N)cc3)o2)cc1,plasma clotting,normal human plasma,up to 100 µM,,EC×1.5 prothrombin time,no effect
Oc1nc2nonc2cc1Nc1c(F)c(F)c(F)c(F)c1F,indirect calorimetry,Western diet-fed mice,"oral gavage, 130 mg/kg, 4 h",baseline: vehicle,oxygen consumption,increased
CO[C@H]1CC[C@H](N2C(=O)CNc3ncc(-c4ccc(C(C)(C)O)nc4)nc32)CC1,flow cytometry,"stimulated T cells, human, blood","30 mg single dose, 3 h, mean",baseline: baseline,p4EBP1 change from baseline,-45.8%
O=S1(=O)CC(O)c2ccccc21 (centres unmarked),"CoA-CPM signal reduction, CPM fluorescence thiol",cell-free biochemical,"assay interference counter-screen, with: CoA replacing acetyl-CoA",,IC50,> 125 µM
O=C(O)CCC(=O)O.[2H]C([2H])([2H])Oc1cc(C)c2[nH]ccc2c1CN1CC[C@@H](C2CC2)C[C@H]1c1ccc(C(=O)O)cc1,"EIA, measured: complement fragment Bb","human, plasma","50 mg twice daily, multiple ascending dose",,maximum inhibition,53.4%
CN[C@@H]1COc2c(S(=O)(=O)NC(=O)Nc3c4c(cc5c3CCC5)CCC4)cnn2C1,measured: IL-18,"human participants, whole blood ex vivo","900 mg twice daily, multiple doses, 4 h, IL-18, circulating, adjusted for, with: LPS/ATP",baseline: baseline,inhibition,100%
COc1ccc(-c2noc(Nc3ccc(Cl)cc3)n2)cc1,"CoA-CPM signal reduction, CPM fluorescence thiol",cell-free biochemical,"assay interference counter-screen, with: CoA replacing acetyl-CoA",,IC50,> 125 µM
C[C@@H](NC(=O)N1C(=O)[C@H](Cc2ccnc(N)c2)[C@H]1C(=O)O)C1CCCCC1,,human,"iv infusion, 1.0 mg/kg/h, 24 h, unit not given",baseline: baseline,PT AUEC,145
CSCCNc1nc(SCCC(F)(F)F)nc2c1ncn2[C@@H]1O[C@H](COP(=O)(O)OP(=O)(O)C(Cl)(Cl)P(=O)(O)O)[C@@H](O)[C@H]1O,"platelet aggregation, light transmission aggregometry","human patients, platelet-rich plasma","dose not given, 3 h, with: TRAP 5 µM",,patients with IPA above 80%,16.2%
CO[C@@H]1[C@@H](OC(N)=O)[C@@H](O)[C@H](Oc2ccc3c(O)c(NC(=O)c4ccc(O)c(CC=C(C)C)c4)c(=O)oc3c2C)OC1(C)C,,"Brca1 wild-type MEFs, mouse",12.5 µM,,colony survival,94% and 92% and 91.9% and 83.3% and 75.8%
NC(=O)c1cnc2[nH]ccc2c1N[C@@H]1[C@@H]2CC3C[C@H]1C[C@@](O)(C3)C2,"flow cytometry, measured: regulatory T cells","Japanese healthy subjects, peripheral blood","oral, 30 mg twice daily, day 7",,change from baseline,-0.18%
COc1ccccc1[C@H](Cn1c(=O)n(C(C)(C)C(=O)O)c(=O)c2c(C)c(-c3ncco3)sc21)OC1CCOCC1,"[1-13C]acetate infusion, isotopomer analysis","overweight or obese healthy men, plasma VLDL-TG palmitate","oral, 50 mg single dose, 1 h post-dose, with: oral fructose",,fractional hepatic DNL,5.32 % new palmitate
COc1cc(Nc2ncc3c(n2)-c2ccc(Cl)cc2C(c2c(F)cccc2OC)=NC3)ccc1C(=O)O,,"mouse, NB-1643 neuroblastoma xenograft",5.2 mg/kg,direction not given,median response score,6
Cl.N[C@@H](Cc1ccc(Oc2nnc(-c3ccccc3)nn2)cc1)C(=O)O,iEDDA cycloaddition,aqueous DMSO 25 %,"37 °C, with: TCO-OH 2.2 mM",,kobs,0.15 s⁻¹
N=C(N/N=C/c1ccccc1)SC1CC(=O)N(c2ccc(Br)cc2)C1=O (centres unmarked),"CoA-CPM signal reduction, CPM fluorescence thiol",cell-free biochemical,"assay interference counter-screen, with: CoA replacing acetyl-CoA",,IC50,> 125 µM
Cc1noc(C)c1-c1cc(C(O)(c2ccccn2)c2ccccn2)c2nc(C3CC3)[nH]c2c1,measured: HEXIM1 expression,"human, peripheral blood","6 mg, day 1, 1599 study",,maximum induction,29.1%
N#CCC1CCN(c2nc(Nc3ccc(N4CCC(O)CC4)cc3)c3c(=O)[nH]ncc3n2)CC1,Olink multiplex,"human, serum","80 mg, day 15, unit not given",baseline: baseline,IL-18 level change,-1.37
O=C(O)CN1Cc2cccc(n2)CN(CC(=O)O)Cc2cccc(n2)C1,,HEPES buffer with NaCl,"33 °C, 1.4 T",,r1 relaxivity,2.5 mM⁻¹ s⁻¹
O=C1Nc2cc3[nH]nc(-c4ccncc4)c3cc2CN1Cc1ccccc1,RECIST v1.1,"human, relapsed or refractory advanced solid tumours","intravenous, 3.6 mg/kg, pooled schedules",,"partial response, best response",0%
CC(C)C[C@H](NC(=O)[C@H](CC(C)C)NC(=O)C(C)(C)NC(=O)[C@@H](NC(=O)[C@H](CCC1CCCCC1)NC(=O)[C@@H]1CCCN1C(=O)c1ccc(F)cc1)[C@H](O)C(C)C)C(=O)NC(C)(C)C(=O)NC(C)(C)C(=O)NCCC(=O)N[C@@H](C)CN(C)C,,small unilamellar vesicles,concentration not given,,calcein leakage,36.4%
Cn1cc(Nc2nccc(-c3ccc4c(c3)CN(C3COC3)CC[C@H]4NC(=O)c3cn(C(C)(C)C)nn3)n2)cn1,measured: Superpathway of Cholesterol Biosynthesis,"splenic B cells, mouse","in vivo, 30 mg/kg, IgD-activated B cells","baseline: vehicle, positive = activation",pathway activation z-score,-2.89
Cn1cc(Nc2nc(N)nc(-c3cccc(-n4ccc5cc(C6CC6)cc(F)c5c4=O)c3CO)n2)cn1,"CD63 upregulation, anti-IgE-induced","human, multiple ascending dose, whole blood basophils ex vivo","150 mg twice daily, day 14, 4 h",,inhibition,89.1%
FC(F)(F)c1cc(Nc2nc(Cl)nc(Cl)n2)cc(C(F)(F)F)c1,HPLC-MS,,"pH 10.2, with: 50 mM N-α-acetyl-lysine",,pseudo-first-order rate constant,8.9 h⁻¹
C[C@H](Oc1ccc(Br)cc1-c1ccon1)C(=O)O,muscle velocity recovery cycles,"human, tibialis anterior muscle","400 mg once daily, multiple doses, multiple ascending dose",baseline: placebo,relative refractory period,-0.541 ms
O=C(Nc1nc(-c2ccccc2)ns1)c1cccs1,"CoA-CPM signal reduction, CPM fluorescence thiol",cell-free biochemical,"assay interference counter-screen, with: CoA replacing acetyl-CoA",,IC50,> 125 µM
O=C1O[C@H]([C@@H](O)CO)C(O)=C1O,hydroxyl radical scavenging,,200 µM,,inhibition,65.6%
CC(C)(C)c1sc2ncnc(Oc3c(F)cccc3OC(F)(F)F)c2c1-c1ccc(Cl)cc1,,"Mrgpr knock-out mice, CCI","oral, 16 mg/kg",,heat hyperalgesia,inhibited
CC(C)NCC(O)c1ccc(O)c(O)c1 (centres unmarked),,"ventricular cardiomyocytes, C57BL/6 mouse","dose not given, 0.024 s",,sarcomere length,1.72 µm
O=S1(=O)C=C(Oc2ccc(F)cc2)c2ccccc21,"CoA-CPM signal reduction, CPM fluorescence thiol",cell-free biochemical,"assay interference counter-screen, with: CoA replacing acetyl-CoA",,IC50,> 125 µM
N#Cc1ccn2c(-c3ccncc3)c(-c3ccc(F)cc3)nc2c1,"kinase binding, competitor, MIB/MS competition, measured: CDC7",Candida albicans cell lysate,10 µM,baseline: DMSO,log2 fold change,-0.0995
Cn1cc([C@H]2C[C@H]3CSC(N)=N[C@@]3(c3ccc(F)cc3F)CO2)cn1,measured: Aβx-40,"Mus musculus wild-type, cerebrospinal fluid","subcutaneous, 50 mg/kg, 9 h",,Aβ40 level,0.4 ng/mL
C=CCn1c(=O)c2cnc(Nc3ccc(N4CCN(C)CC4)cc3)nc2n1-c1cccc(C(C)(C)O)n1,,HNSCC patients,"dose not given, single agent first week, then cisplatin/docetaxel",,histological response,-95%
Cc1n[nH]c2ccc(-c3cc(OC[C@@H](N)Cc4ccccc4)cnc3-c3ccoc3)cc12,"kinase binding, competitor, MIB/MS competition, measured: SSK2",Candida albicans cell lysate,10 µM,baseline: DMSO,log2 fold change,-2.24
